# Assay results collected from several papers.
# Each numbered part is a random draw from the data of one study; scales do not carry over between parts.

# Study 1 — method: protein-binding microarray; molecule type: double-stranded DNA, one strand shown; matrix: in vitro; concentration: not given; reading: higher = stronger binding
# Target: Hepatocyte nuclear factor 3-beta, forkhead domain (FOXA2, Homo sapiens, UniProt Q9Y261, residues 142-269)
# Setting: k-mer, scored over probes, only values ≥0.25
# Target sequence (chain): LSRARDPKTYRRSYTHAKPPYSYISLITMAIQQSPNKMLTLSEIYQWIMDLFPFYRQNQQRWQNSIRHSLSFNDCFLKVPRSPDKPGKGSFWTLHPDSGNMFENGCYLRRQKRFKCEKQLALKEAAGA
Strand,E-score
AGGTATTA,0.278
ACGTAATA,0.303
GATGAATA,0.332
AACAATGT,0.361
GACATTAA,0.251
AAACTAAC,0.253
AGAATATG,0.294
AGTAATAT,0.25
GTATCATA,0.356
TATATCAA,0.302
ATTAGTTA,0.309
CAATACAA,0.322
CGTATATA,0.321
GTGTACTA,0.255
AATGATAT,0.302
AATATAGG,0.254
ATCCGTAC,0.274
GGTCAACA,0.329
ACACGACA,0.257
ATAACAGA,0.358
GGAGTAAA,0.267
CTCATATA,0.261
AACCATTA,0.301

# Study 2 — method: protein binding microarray; molecule type: double-stranded DNA, one strand shown; matrix: in vitro; concentration: not given; reference: not given; reading: higher = stronger binding
# Target: Histone acetyltransferase KAT6A, winged helix 1, GST fusion (KAT6A, Homo sapiens, UniProt Q92794, residues 1-85)
# Setting: 8-mer, flanks averaged, mean of 2 arrays, mostly near background
# Residues (chain): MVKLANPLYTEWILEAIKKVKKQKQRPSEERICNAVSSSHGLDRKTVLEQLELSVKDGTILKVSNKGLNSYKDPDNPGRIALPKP
Strand,E-score
CCTCTAAC,-0.153
AAAGCCCA,-0.187
CAGCTTTA,-0.181
CGGTGACA,-0.0677
AAAATGAT,-0.0952
AAGTGACA,-0.0396
GAAGAGAC,-0.00255
TATTTGGA,-0.226
ATAAGGCC,0.0878
GGTCCCAA,-0.173
CGTTTAAC,-0.111
ACTTCAAG,-0.161
ACTCAGGA,-0.109
AACCCGTA,0.36
CCGAGCCA,0.049
ACACACTA,-0.0298
ACAAACGA,-0.111
CAATCGTG,-0.131
CTAGGGGC,-0.0743
AGTACTCC,0.00611
CAACCTCA,-0.246
ATAGTTGG,-0.182
CAGAGCGA,-0.105
CCATCTAA,-0.118
GATGTGAA,-0.232

# Study 3 — method: protein-binding microarray; molecule type: double-stranded DNA, one strand shown; matrix: in vitro; concentration: 2540 nM top; setting: 60-bp whole probe; with: salmon DNA 0.4 mg/ml; reference: random background probes; reading: higher = stronger binding; all sequences stand within: GCCTAGCAC … GTCTTGATTCGCTTGACGCTGCTG
# Target: Interferon regulatory factor 3, full length, phosphomimetic (IRF3, Homo sapiens, UniProt Q14653, residues 1-427, S386D/S396D/S398D/S402D/T404D/S405D)
# Target sequence (chain): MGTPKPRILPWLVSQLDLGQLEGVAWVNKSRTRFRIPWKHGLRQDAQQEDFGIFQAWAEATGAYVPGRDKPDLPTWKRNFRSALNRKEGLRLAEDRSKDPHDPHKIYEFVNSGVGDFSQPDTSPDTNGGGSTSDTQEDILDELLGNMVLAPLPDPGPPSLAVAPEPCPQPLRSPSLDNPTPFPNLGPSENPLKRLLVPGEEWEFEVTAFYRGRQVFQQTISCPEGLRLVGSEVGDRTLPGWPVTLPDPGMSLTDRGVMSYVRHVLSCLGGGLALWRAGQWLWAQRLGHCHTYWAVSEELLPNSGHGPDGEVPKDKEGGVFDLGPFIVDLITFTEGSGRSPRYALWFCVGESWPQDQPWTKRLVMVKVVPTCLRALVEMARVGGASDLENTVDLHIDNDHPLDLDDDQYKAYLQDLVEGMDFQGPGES
Strand,fitted relative affinity [z-score]
TTAGAACTGGGGGATCGATTAGTGCTA,-0.191
TTAGGTTTCGGGTATCGTTTAGTGCTA,4.31
TCACTTTCCTTTATGTCACTGTGCTAG,7.98
TTAGGTCTCGGTATCGGTTGGTGCTAG,2.02
GACGGACTGGGACTGTGGACGTGCTAG,-0.73
TCATTTCTACTGTCTGTTACTGTGCTA,1.92
TCAACTCTGTTTTCGCTTACTGTGCTA,1.37
TTAGATATCGGGTTTCGAGTAGTGCTA,0.74
ATTTGCTTCAGGTTTACCAGAGTGCTA,0.797
TTAGGACTGGGGTTTCGTTTAGTGCTA,1.07
TCAGATTTCAGTTTCTCACTGTGCTAG,3.57
CTCTGTCCCCCTTTTATATTGTGCTAG,1.85
GGTGCCTCGGGTTCAGGGAGGTGCTAG,-0.778
GCCGAACTGAGACTGGAGACGTGCTAG,0.839
TTACGTTCCCTTTTCCTTTAGTGCTAG,6.25
TCAATTTTAACCCTTATACTGTGCTAG,0.831

# Study 4 — method: RNA Bind-n-Seq; molecule type: RNA; matrix: in vitro; concentration: 365 nM; reference: no-protein control; reading: higher = stronger binding
# Target: RNA binding protein fox-1 homolog 2, RRM domain, GST-SBP tag (RBFOX2, Homo sapiens, UniProt O43251-10, residues 100-194)
# Setting: natural RNA segment, single round, ends assumed
# All sequences stand within: GGGAGUUCUACAGUCCGACGAUC … UGGAAUUCUCGGGUGCCAA
# Target sequence (chain): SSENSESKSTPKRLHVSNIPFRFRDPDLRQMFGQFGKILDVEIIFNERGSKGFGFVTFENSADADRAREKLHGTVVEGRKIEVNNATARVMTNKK
Strand,RBNS enrichment (R)
UAAUCCCACUCAAUAGUAUCAUUACAGUUUUCUGUAAGAGAAAAUAUUACUUAUUUAUCCCAGUAUUCCUAGCCUGUCAACAUAAUAAAUAUCGGAACAAAACCUGGUAA,0.966
ACCAUCUCUCUCUCCCCCUACCUACCAAACUAUCCACAAUUUAAAUAAAGAACUGCUGUGUCUGACUACUCUCAAUAAAAGUUUGUGUCUUUAUUUCUGGUCUCUAGACU,0.971
CCUGAAUAUUUCCAGUGCCUACCUGUGGUCUGUCCAGUUCUGGCCUGUAAGCCCUUCCCUAUCAGAGACAGUUGCAGAGUAGAGGAUAUUGAGGGGUUGAGGGGUUGAUC,0.568
AGUAUAGGGAAUGGGCACUGAGUCACUGAGAACACUUGCAGGGUUGACUUUGCAUAUAGGGCUCCCAUGCACCCACCGUUCCUCUGUUUUGAAACUCUAAUUGCAAUAAC,0.617
UUUCAAAAACUUUUAUAUUAUGUAUUAUAAGAAGUUACAGUAGUACCAUUUUGAUUAGUCUGAAUGUUUUCAGGCCUUGAAAUAAAUUUUGACUAAGUGAUAUUUUUUCU,0.911
GCAGUCCUAUAGUAACCGAGCUUGCACUCGGGAGGUAGGAAGCCAGAGGCCAGCCUCAAGGUGGCCAUGUCGAGGUGAGGCCAGCUUGGGCUAUCCGAGACGCUGUCAGC,0.375
GAAGGUUGGCAGCUGCCUGGCCUCACUGAACCUUAGUGACAAGUCUUUGCCUCAGGAGCUGACUCAUGCCAUAGAGAGGGGACUGUAGACCAGGCUGGGGCUGCUGCCCU,0.453
GAGACCUCUCUGAUUCAGAAACACACUUCUACCUCUUUACUGUUAACUCCAACAGAUGUAGCCAGCAGCCUGGGCACUUGUGUUAGUGGUGCCGUUUGCUGGCUUCUCCA,2.45
GCCAGAUGAGGCUAACAAGACCACAGUAGCCCCCUUCCCAGGUACCACACUGUCCCUGGAGAUCCCUCCAGCCUAGCCCUGCUAUAGAUCUGCUCUAGACUGUGAAAUCA,0.328
UUGUUAUGUUUUUAUUUGGGCAAGUUUAAUCAUGGAAAACUCAAAAAGAAGGGGGGAAAUGGUCAGUUUAAGCCAAAAGAAACUUUCUAAACAAUGUAUAGGUACACAGC,0.493
CUUGUAUACAGAGUGUUCACUGCUAUUUCAGAUCUUGGUGAGUGUUCCAGUAACCAAGCCAGUCCCCAGGACACUAGUCUACGUUGGCAGGACUUCACAAGUUAAUCAUU,0.47
CCAAGCAGGGCCUGCCCUGACAGUUCCACUUUACUCCCAUAUUCUCCCCGUGCUCCUGGCGAGCCUGAGCUUGCCACCCGGUUCUCCCUGCCCGACUCCAGCUGCCCAAG,0.618

# Study 5 — method: RNA Bind-n-Seq; molecule type: RNA; matrix: in vitro; concentration: 100 nM; reference: input RNA pool; reading: higher = stronger binding
# Target: RING finger protein unkempt homolog, zinc fingers 1-6, SBP tag (UNK, Homo sapiens, UniProt Q9C0B0, residues 30-357)
# UniProt Q9C0B0, sequence (30-357, looked up): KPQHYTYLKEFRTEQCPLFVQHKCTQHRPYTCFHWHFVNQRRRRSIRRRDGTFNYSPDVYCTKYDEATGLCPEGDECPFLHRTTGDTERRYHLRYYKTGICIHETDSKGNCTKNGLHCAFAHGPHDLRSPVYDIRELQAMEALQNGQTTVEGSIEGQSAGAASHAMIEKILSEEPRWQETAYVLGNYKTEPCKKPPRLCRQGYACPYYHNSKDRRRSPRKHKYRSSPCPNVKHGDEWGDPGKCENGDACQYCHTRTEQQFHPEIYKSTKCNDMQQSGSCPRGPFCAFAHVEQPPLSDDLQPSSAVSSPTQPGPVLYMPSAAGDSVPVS
# Setting: RNA with constant flanks, vertebrate orthologous sites, ends assumed
# All sequences stand within: GGGAGUUCUACAGUCCGACGAUC … CAACAGAGGAUUGAGCAUCA
Strand,bound/input enrichment [ratio]
AGGGAAAAGAACUCACAAACUCAAAGGAAAACUAUUAAAGAGUUCCUAACAGUUAAAAGCUAGGAAAGAUUAGGACAAGAUUACAAAUGAGAAAUUAAAAACAGAAGAAAAAGGACAGGG,0.758
AGCCACCCAAGGAUUCAGGACUGGCUUUACAAAUCUUCCCAACAGAUUCGGAACUAACGCCAGAGGCCAGCCCAGACCGUGAUACUCUCCCGUUGCGUUUUAUUUAUUGGCGUCAGAGUA,0.418
CAUUUCGAAUCUUCAGAAAUUGUUCUGAGAUCCUCAAGUUCAUUUUAUAGGCUCAGACCAGAGGAUGUUGUUGCUGCAUUGUUUUGUUUUUUCAUUUGUGUACUGGGUCCAGAGUUGCAU,0.401
AUGCAUUUUGCUACUUGGAUGCGGUCUGCACAGAAAACUUCUGGCCUCUUCACAAGACCAAGUUAAUAUGUUUUUUUUUUAAGAUGUUAGGACCUAACUGAAUUUACUAAAAUGUAACUA,0.295
GUGUAGAAAAAACUUUUCAUUGACACCCUCCCAUAUUAUGAAAUUCCCUAGAAAUUUGUUUGAAAUCUUAAUUUUUCUAAUCCAUGCUCACUGUACUAGUCAUUUUUAGCCCAUAAUCGA,2.3
GAUUUUCAAUCUCUUCCCCCUUAUCUUGAUUUUUUAAAAGCCCUUCUCUUUUUUUUUUAGGCAUAUGUAGAAACAUUAGCAGAAAGAUUUAAUUUGGGCGACUUUGAUUCUUAAAGAGAA,0.425
AGCAACUCAAGGAUUCAGGACUGGUUUUACAAAUGUCCCAAGCAGAUAUGGAACUAGCACUCGAGGUCAACCCCAGCCAUAAUAAACUCUAUUAUGCGUUAUUUAUUGUACAUAAGGGUA,0.115
CAUUAACACACAAAAUGUCUCCAGGGGGGUAUUAGAUUUGAUUUCUUACAUAUAAAACAAACCAGCCAACCAUUUUUAAAGUAGAAGAGGGUCUCUGAUAGUAAAUGAAAUACUCUUUUU,1.61
UGAAGAAGAGACCCCUGUGGUUUCUAAUAGGUAAUUUGCUCGUUUUUAGAUAUUUCACUCAACAAUUCUUGACUGAACGGGUAUGCCAACAUUUUUUCACAUAAGGGUGAGCAGUCUUCA,0.573
AGUCGAUGGAGUUACACAACACUUAAGCAGCAGGCGGAAGGCUAUCCCAGUGCGUGUUGGUAGUGACCGAGAGAGUUAUAGCUGGUCUUGCCUUGUAUUUUACCCCUUGGUUCAGGUCUC,0.376
GCUCUUAAUGCACUGUUUUACCAGGCAUUGUCUGAAGUUUGUGUAAUCUAGAAGAUUUUAUAGUUUUAUUUUAAUGAAGUAUGAAUUGAAGCAAAGCUGUUAGGAGUAUGUAGUCUUUUA,1.25
